Results collected from several papers.
A part holds a random share of what one study measured.

Study 1
Target: Fragile X messenger ribonucleoprotein 1, C-terminal low-complexity region (Fmr1, Mus musculus, UniProt P35922)
Method: RNA Bind-n-Seq
Form: RNA
Matrix: in vitro
Concentration: 200 nM
Notes: whole 134-nt RNA, ends assumed
Added: 150 mM KCl
Reference: input library
Reading: higher = stronger binding
Shared flanks, not repeated: GGGAGUUCUACAGUCCGACGAUC … UGGAAUUCUCGGGUGUCAAGG
| Strand | log2 enrichment |
| --- | --- |
| AAGUCCUGUGCUACACAUCGUAUGUACCGAAUCGGGAAAAAGGGUUUGGGUUUGGGAAAGUAUUAUGUUACGCCGUUCGGAUCUGCACUU | 0.585 |
| CAAGUCCUGUGCUACACAUCGUAUGUACCGAAUCGGGGUUUGGGUUUGGGGUUUGGAAAGUAUUAUGUUACGCCGUUCGGAUCUGCACUU | -0.0325 |
| GUCCUGUGCUACACAUCGUAUGUACCGAAUCGGGGUUUUUUUGGGGAAAGGGGAGGGGAAAGUAUUAUGUUACGCCGUUCGGAUCUGCAC | 0.594 |
| GUCCUGUGCUACACAUCGUAUGUACCGAAUCAAAUUUUUUUAAAUUUUUAAAUUUAAAAAAGUAUUAUGUUACGCCGUUCGGAUCUGCAC | -1.3 |
| ACUGAUGAGAGCCUGAGGAGCCAUUUUGAGCAAUGGGGAACGCUCACGGACUGUGUGGUAAGAUUUGGAAGGGACAAAGCAGUAAAACAG | 0.249 |
| CACAGACAACACGCACCCACACAGACACAGAGGGAAGGGGUUGGGAUGGGGACAGGGUGCACAUCAGGGCGGGGUAGGACCCCAGCCCCU | 1.26 |
| ACCAUGCAGGUGGGCAUCUUUGGGAAGUGGGGCAAGGGGGGGAUAGGGAGGGGGGUAACAAAAUGGGAACAGGUGGUCCCAGGUCGUUUC | 0.404 |
| ACCAUGCAGGUGGGCAUCUUUGGGAAGUGGGGCAAGGGGGGGAUAGGGAGGGGGGUAACACUUUGGGAACAGGUGGUCCCAGGUGGUUUC | 0.816 |
| AAGUCCUGUGCUACACAUCGUAUGUACCGAAUCGGGUGGGUUUGGGAAAAAAAGGGAAAGUAUUAUGUUACGCCGUUCGGAUCUGCACUU | 0.439 |

Study 2
Target: RNA binding protein fox-1 homolog 2, RRM domain, GST-SBP tag (RBFOX2, Homo sapiens, UniProt O43251-10, residues 100-194)
Method: RNA Bind-n-Seq
Form: RNA
Matrix: in vitro
Concentration: 365 nM
Notes: natural RNA segment, single round, ends assumed
Reference: no-protein control
Reading: higher = stronger binding
Shared flanks, not repeated: GGGAGUUCUACAGUCCGACGAUC … UGGAAUUCUCGGGUGCCAA
Construct (chain): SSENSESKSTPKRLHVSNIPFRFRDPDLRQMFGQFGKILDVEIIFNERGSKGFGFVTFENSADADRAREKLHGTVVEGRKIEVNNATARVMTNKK
| Strand | RBNS enrichment (R) |
| --- | --- |
| AGGUAGAAUUACUAAUACAAGGGUUAAAGAAGGUAGAUUUUGUUUUCAAUAUUUGGGUAAUAUUAGAAAGAUUCUUCCCACAGGGAAGAACUAGCAAGUGUCCCAAUUUU | 0.777 |
| AGGCAUUAAAAAUGCAUACCAUGCUUUCAGAACAAAAGCUCUGGGCCAGAAAGGCAAUUUGGCUAAAAAAUGAAUAAGACUACUUCUAAUGUAACUAAGCAUCUCCACUA | 0.532 |
| UCUUGACCCUACACUGAAGGCUGAAGGCAGAAGCCACAAGAGGCCUUGAGUGCCACCCCCAGGGAAGAACAUAAAGGGUUGCACAAUGCCACCCAUCCACUCCUUGCCAA | 0.236 |
| AGAGGUACCGACUUGUUCCCUAUGGAAAUCAUUCCUAUCUGGAGUCUCUGACAGACAAAUCUAAGGAGUUGCCGUUAUACUGUUCUGGGGGUUUGCGGUUUUUCUGGGAC | 0.408 |
| CUGUGGUGGUUGUGAUCCCUAGGUCUUGGGAGCUCUUGGAGGUGUCUGUAUCAGUGGAUUUCCCAUCCCCUGUGGGAAAUUAGUAGGCUCAUUUACUGUUUUAGGUCUAG | 1.5 |
| GACACUAGAUGGCUGUGAAUGUGAUCCGCUCACUGACACUCUGUAAAGGCCAAUCAAUGCACUGUCUGUCUCUCCUUUUAGGAGUAAGCCAUCCCACAAGUUCUAUACCA | 0.369 |
| AGCUCUAACUCUGAGAGCCUUUUGAGGAUGGGUGCUAGAGGGCCCGUGCCCCUAAAACAGCAGGCAGCUUCCCCCCCACCCUGGUGUGCACACCAGGAGUGUUUGCACAG | 0.274 |
| CCAUCUUCUUUCAUUCUGUGCUGUGGUCUGCAGUGGAAACAGCAGGCCUUUCAGCUCCUUGUGUGCCUGUUGUGUCUGGUAAUGAUGUAGUUCAGAGUGGGAUUUUUUUC | 0.391 |

Study 3
Target: Histone acetyltransferase KAT6A, both winged helices, GST fusion (KAT6A, Homo sapiens, UniProt Q92794, residues 1-181)
Method: protein binding microarray
Form: double-stranded DNA, one strand shown
Matrix: in vitro
Concentration: not given
Notes: 8-mer, flanks averaged, mean of 2 arrays, mostly near background
Reference: not given
Reading: higher = stronger binding
Residues (chain): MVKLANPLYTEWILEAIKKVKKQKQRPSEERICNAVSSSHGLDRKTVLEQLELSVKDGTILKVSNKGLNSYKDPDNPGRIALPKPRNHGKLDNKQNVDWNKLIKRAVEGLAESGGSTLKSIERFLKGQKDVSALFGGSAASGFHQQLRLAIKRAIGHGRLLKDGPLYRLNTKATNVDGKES
| Strand | E-score |
| --- | --- |
| TACATGAA | 0.0632 |
| AAAGGTGT | -0.0851 |
| GATACCTA | -0.0561 |
| TAGTGAGA | -0.12 |

Mixed results
| Molecule | target | test | test system | conditions | how to read | endpoint | value |
| --- | --- | --- | --- | --- | --- | --- | --- |
| PhoQ, residues 284 288 289 292 302 303 SSCLAV | PhoP, residues 12 14 15 18 19 TQALL (Escherichia coli, UniProt P23836) | Sort-seq, measured: YFP reporter | E. coli | PhoQ-PhoP variant library, added: 10 µM Mg2+ | reference: high Mg2+ state, higher = stronger signaling | fold induction | 7.06 |
